Measured values of several laboratories.
Lines come from different studies, so protocols differ. Numbers after ± are the reported error.
BCHE: Cholinesterase (BCHE, Equus caballus, UniProt P81908)
UniProt P81908, sequence (whole entry, looked up): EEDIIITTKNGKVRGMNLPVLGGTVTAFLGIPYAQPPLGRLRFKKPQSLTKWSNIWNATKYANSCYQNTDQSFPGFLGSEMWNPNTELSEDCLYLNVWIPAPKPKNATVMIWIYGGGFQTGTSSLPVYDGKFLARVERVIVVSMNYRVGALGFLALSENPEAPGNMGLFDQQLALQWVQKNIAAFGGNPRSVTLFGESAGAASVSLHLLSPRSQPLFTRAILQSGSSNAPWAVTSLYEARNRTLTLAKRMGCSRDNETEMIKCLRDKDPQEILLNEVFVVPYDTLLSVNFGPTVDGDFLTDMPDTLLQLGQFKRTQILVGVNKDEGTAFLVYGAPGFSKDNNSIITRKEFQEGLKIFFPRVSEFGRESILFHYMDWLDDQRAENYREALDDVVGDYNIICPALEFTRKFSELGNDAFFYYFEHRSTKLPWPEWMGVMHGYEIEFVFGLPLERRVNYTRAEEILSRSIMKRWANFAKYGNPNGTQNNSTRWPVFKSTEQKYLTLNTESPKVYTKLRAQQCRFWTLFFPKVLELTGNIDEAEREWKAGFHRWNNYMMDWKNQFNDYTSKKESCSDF
UniProt P12821, sequence (whole entry, looked up): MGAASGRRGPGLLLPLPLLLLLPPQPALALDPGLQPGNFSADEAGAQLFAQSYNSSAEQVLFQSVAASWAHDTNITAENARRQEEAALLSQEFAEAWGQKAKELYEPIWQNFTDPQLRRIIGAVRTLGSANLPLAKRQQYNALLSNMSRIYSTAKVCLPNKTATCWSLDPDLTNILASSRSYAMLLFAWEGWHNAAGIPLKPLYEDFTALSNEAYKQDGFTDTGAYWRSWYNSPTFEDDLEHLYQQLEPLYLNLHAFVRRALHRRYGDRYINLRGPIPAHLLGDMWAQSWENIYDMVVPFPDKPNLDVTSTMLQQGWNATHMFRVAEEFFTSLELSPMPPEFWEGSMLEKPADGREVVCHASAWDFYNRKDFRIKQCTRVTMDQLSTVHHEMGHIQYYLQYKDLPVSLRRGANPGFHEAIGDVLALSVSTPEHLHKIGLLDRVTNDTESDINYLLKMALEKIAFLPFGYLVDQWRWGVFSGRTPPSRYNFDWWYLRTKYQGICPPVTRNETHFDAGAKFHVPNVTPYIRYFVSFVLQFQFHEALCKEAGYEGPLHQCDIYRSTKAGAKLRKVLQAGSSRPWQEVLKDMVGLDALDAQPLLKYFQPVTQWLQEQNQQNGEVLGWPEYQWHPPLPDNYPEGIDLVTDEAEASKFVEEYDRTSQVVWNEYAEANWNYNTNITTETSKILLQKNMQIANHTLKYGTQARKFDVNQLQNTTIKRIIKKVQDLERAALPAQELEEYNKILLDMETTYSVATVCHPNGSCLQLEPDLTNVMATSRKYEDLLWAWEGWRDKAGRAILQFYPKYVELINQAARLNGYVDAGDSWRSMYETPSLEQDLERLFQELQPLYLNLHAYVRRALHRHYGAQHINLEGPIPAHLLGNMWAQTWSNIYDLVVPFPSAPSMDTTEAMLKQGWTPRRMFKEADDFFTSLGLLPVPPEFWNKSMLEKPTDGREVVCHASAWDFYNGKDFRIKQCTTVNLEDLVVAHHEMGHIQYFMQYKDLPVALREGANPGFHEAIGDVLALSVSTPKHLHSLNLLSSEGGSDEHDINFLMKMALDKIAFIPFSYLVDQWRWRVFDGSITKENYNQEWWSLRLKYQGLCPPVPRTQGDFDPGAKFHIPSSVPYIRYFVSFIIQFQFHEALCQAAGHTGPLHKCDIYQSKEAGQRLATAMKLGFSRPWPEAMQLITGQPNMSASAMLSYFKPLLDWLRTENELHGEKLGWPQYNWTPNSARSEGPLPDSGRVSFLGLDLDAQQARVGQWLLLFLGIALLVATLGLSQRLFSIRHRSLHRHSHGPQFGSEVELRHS
UniProt P08069, sequence (whole entry, looked up): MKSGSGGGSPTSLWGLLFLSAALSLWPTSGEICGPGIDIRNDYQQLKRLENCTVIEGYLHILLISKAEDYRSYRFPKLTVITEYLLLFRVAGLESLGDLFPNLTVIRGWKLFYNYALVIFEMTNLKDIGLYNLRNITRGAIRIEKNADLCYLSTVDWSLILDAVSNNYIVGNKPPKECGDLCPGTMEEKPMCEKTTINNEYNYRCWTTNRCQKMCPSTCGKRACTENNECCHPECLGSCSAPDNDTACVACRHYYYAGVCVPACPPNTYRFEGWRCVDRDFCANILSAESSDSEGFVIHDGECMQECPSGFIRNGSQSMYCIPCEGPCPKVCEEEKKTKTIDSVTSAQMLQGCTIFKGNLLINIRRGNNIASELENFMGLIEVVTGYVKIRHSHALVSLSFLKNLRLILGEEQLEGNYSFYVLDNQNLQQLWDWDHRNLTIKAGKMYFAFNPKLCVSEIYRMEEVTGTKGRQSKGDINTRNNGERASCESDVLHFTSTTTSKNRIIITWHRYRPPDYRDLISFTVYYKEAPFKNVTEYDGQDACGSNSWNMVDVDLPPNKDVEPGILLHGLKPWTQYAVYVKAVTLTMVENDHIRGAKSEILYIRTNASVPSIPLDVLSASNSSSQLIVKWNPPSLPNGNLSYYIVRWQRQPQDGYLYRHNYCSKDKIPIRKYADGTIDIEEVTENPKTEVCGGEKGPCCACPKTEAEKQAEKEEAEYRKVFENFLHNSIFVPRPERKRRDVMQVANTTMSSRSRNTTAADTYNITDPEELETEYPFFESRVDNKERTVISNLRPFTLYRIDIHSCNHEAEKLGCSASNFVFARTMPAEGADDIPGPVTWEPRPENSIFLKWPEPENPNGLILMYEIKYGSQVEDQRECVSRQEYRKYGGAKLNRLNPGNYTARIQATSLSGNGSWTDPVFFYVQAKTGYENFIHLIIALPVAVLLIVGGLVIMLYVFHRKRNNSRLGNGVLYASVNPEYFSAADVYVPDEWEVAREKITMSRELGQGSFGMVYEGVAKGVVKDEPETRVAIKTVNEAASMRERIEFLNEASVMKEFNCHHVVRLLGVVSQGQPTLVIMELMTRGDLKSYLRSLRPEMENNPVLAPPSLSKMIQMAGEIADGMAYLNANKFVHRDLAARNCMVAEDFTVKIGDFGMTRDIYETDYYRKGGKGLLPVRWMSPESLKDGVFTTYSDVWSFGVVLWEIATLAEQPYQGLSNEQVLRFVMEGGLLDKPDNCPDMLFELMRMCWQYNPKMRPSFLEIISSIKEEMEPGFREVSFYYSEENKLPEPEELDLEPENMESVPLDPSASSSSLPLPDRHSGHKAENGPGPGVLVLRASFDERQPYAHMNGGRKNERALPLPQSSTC
UniProt P39900, sequence (whole entry, looked up): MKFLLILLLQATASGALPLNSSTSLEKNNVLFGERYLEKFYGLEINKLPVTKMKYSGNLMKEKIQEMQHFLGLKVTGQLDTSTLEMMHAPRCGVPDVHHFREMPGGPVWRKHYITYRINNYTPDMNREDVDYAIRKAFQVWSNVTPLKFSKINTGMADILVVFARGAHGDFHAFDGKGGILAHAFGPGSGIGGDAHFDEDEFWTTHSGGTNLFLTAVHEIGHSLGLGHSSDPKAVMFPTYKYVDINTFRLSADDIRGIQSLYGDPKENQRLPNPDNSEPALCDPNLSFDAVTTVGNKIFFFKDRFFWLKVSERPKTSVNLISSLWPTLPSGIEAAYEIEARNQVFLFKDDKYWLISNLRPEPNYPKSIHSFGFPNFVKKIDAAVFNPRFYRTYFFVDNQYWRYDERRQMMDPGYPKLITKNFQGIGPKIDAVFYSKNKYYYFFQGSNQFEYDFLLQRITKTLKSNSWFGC
UniProt P12822, sequence (whole entry, looked up): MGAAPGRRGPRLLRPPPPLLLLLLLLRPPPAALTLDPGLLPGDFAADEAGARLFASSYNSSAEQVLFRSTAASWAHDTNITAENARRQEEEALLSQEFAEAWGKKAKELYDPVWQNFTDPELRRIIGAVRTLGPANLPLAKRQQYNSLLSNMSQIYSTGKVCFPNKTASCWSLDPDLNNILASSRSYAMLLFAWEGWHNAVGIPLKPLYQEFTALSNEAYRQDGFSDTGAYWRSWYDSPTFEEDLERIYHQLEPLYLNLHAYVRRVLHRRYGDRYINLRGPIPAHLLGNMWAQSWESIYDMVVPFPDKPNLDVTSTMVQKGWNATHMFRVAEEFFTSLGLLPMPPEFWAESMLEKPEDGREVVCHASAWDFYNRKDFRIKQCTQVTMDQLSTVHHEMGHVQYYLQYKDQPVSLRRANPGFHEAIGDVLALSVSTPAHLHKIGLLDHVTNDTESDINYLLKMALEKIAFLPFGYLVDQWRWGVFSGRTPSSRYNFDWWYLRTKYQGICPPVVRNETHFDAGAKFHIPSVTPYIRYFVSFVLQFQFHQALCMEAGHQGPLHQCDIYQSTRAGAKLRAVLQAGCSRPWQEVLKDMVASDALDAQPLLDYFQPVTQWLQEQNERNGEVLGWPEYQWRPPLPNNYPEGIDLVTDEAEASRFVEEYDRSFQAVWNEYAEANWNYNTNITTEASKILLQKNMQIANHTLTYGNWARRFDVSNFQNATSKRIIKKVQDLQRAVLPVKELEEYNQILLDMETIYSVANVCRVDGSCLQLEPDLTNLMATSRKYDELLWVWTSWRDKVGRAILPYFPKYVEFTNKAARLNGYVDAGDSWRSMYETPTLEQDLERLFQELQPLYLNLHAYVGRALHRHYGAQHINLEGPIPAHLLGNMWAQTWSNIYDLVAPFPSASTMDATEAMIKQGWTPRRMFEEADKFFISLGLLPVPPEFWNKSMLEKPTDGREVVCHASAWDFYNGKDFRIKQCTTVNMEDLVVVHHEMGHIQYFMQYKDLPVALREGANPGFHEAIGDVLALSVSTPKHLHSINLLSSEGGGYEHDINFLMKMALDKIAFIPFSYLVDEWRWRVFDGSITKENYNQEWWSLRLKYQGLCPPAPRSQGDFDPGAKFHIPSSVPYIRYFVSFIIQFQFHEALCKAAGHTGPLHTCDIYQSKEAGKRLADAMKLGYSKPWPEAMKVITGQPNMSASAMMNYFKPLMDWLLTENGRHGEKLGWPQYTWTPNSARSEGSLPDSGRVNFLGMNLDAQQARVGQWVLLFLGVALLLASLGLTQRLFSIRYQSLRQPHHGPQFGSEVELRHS

`C=CCn1nnc2c(NCc3ccc(C)s3)nc(N[C@H](CC)CO)nc21` has an inhibition of 10 to 20% (CDK5 (Homo sapiens, UniProt Q00535); enzyme activity; 2 µM).
For `CC[C@H](C)[C@H](NC(=O)[C@H](Cc1ccc(O)cc1)NC(=O)[C@@H](NC(=O)[C@H](CCCNC(=N)N)NC(=O)[C@@H](N)CC(=O)O)C(C)C)C(=O)N[C@@H](Cc1c[nH]cn1)C(=O)N1CCC[C@H]1C(=O)N[C@@H](Cc1ccccc1)C(=O)O`, the inhibition was 20% (ACE (Homo sapiens, UniProt P12821); angiotensin I hydrolysis; human serum; 2.5 µM, added: angiotensin I 2.5 µM).
For `N=C(N)NCCC[C@@H]1NC(=O)[C@H](CCCCNC(=O)CCOCCOCCOCCOCCNC(=O)CC[C@H](NC(=O)CCOCCOCCOCCOCCNC(=O)CC[C@H](NC(=O)CN2CCN(CC(=O)O)CCN(CC(=O)O)CCN(CC(=O)O)CC2)C(=O)NCCOCCOCCOCCOCCC(=O)N[C@@H](CCC(=O)NCCOCCOCCOCCOCCC(=O)NCCCC[C@@H]2NC(=O)[C@@H](Cc3ccccc3)NC(=O)[C@H](CC(=O)O)NC(=O)CNC(=O)[C@H](CCCNC(=N)N)NC2=O)C(=O)NCCOCCOCCOCCOCCC(=O)NCCCC[C@@H]2NC(=O)[C@@H](Cc3ccccc3)NC(=O)[C@H](CC(=O)O)NC(=O)CNC(=O)[C@H](CCCNC(=N)N)NC2=O)C(=O)NCCOCCOCCOCCOCCC(=O)NCCCC[C@@H]2NC(=O)[C@@H](Cc3ccccc3)NC(=O)[C@H](CC(=O)O)NC(=O)CNC(=O)[C@H](CCCNC(=N)N)NC2=O)NC(=O)[C@@H](Cc2ccccc2)NC(=O)[C@H](CC(=O)O)NC(=O)CNC1=O` [indium-111 labelled], “tumour to muscle ratio” read 13.5 ± 3.64 (female athymic nude mouse; intravenous, 3 µCi, 72 h, U-87 MG glioma xenograft; baseline: tumour over muscle).
`CCN(Cc1ccccc1)C(=O)CCc1nc(CN2CCN(C(=O)Cc3ccc(OC)c(OC)c3)CC2)no1`: “V1/2 of activation” -42.8 ± 1.71 mV (SCN9A (Homo sapiens, UniProt Q15858); whole-cell patch clamp; HEK stable; 3 µM).
The inhibition of `CC(C)(C)c1ccc(Nc2c3c(nc4ccccc24)CCCC3)cc1` is reported as 20% (BCHE; enzyme activity, inhibitor; 50 µM).
With `C[C@@](O)(C(F)F)[C@H](NC(=O)c1ccc(C#CC#CC2CC2)cc1)C(=O)NO` the inhibition was at most 30% (MMP12 (Homo sapiens, UniProt P39900); enzyme activity, inhibitor; 30 µM).
`COC(=O)C1=CO[C@@H](OC(C)=O)[C@@H]2C(Cn3cc(-c4ccccc4)nn3)=CC[C@H]12` gave an inhibition of 47.75 ± 0.29% (BCHE; inhibitor; horse serum BuChE; 10000 µM).
`CC1CCc2nc3ccccc3c(Nc3ccc4ccccc4n3)c2C1` (stereo not drawn) has an inhibition of -23.4% (BCHE; enzyme activity, inhibitor; 50 µM).
For `CC(=O)NC(Cc1ccc(Br)c(Cl)c1)C(=O)N[C@@H](C)C(=O)N1CCC[C@H]1C(=O)N1CCC[C@H]1C(=O)N[C@@H](CCC(=O)O)C(=O)N[C@@H](Cc1c[nH]cn1)C(=O)N[C@@H](CO)C(=O)N[C@H](C(=O)N[C@@H](C)C(N)=O)[C@@H](C)OP(=O)(O)O` (stereo partly drawn), the inhibition was 0.06% (IGF1R (Homo sapiens, UniProt P08069); cell-free assay, inhibitor; 10 µM).
The inhibition of `C[C@@]12CC[C@H]3[C@@H](CCC4=CC(=O)C=C[C@@]43F)[C@@H]1CCC2=O` is reported as 41.7% (AKR1C3 (Homo sapiens, UniProt P42330); enzyme activity, inhibitor, absorbance; 100 µM, pH 9).
The inhibition of `CC(C)[C@H](NC(=O)[C@H](CCCNC(=N)N)NC(=O)[C@@H](N)Cc1ccccc1)C(=O)N[C@@H](Cc1c[nH]c2ccccc12)C(=O)O` is reported as 92.75 ± 0.15% (ACE (Oryctolagus cuniculus, UniProt P12822); inhibitor; rabbit; concentration not given, 3 h, 37 °C, after incubation with ACE).
With `O=C(c1ccc(Nc2c3c(nc4ccccc24)CCCC3)cc1)C1CC1` the inhibition was -35% (BCHE; enzyme activity, inhibitor; 100 µM).
`O=C(CC(=O)N[C@H]1CCOC1=O)Cc1ccccc1` has an inhibition of 51% (AbaR (Acinetobacter baumannii); reporter gene, antagonist; 100 µM, added: 2 700 nM).
With `N=C(N)NCCC[C@@H]1NC(=O)[C@H](CCCCNC(=O)CNC(=O)CNC(=O)CNC(=O)CC[C@H](NC(=O)CCOCCOCCOCCOCCNC(=O)CC[C@H](NC(=O)CN2CCN(CC(=O)O)CCN(CC(=O)O)CCN(CC(=O)O)CC2)C(=O)NCCOCCOCCOCCOCCC(=O)N[C@@H](CCC(=O)NCC(=O)NCC(=O)NCC(=O)NCCCC[C@@H]2NC(=O)[C@@H](Cc3ccccc3)NC(=O)[C@H](CC(=O)O)NC(=O)CNC(=O)[C@H](CCCNC(=N)N)NC2=O)C(=O)NCC(=O)NCC(=O)NCC(=O)NCCCC[C@@H]2NC(=O)[C@@H](Cc3ccccc3)NC(=O)[C@H](CC(=O)O)NC(=O)CNC(=O)[C@H](CCCNC(=N)N)NC2=O)C(=O)NCC(=O)NCC(=O)NCC(=O)NCCCC[C@@H]2NC(=O)[C@@H](Cc3ccccc3)NC(=O)[C@H](CC(=O)O)NC(=O)CNC(=O)[C@H](CCCNC(=N)N)NC2=O)NC(=O)[C@@H](Cc2ccccc2)NC(=O)[C@H](CC(=O)O)NC(=O)CNC1=O` [indium-111 labelled] the tissue uptake was 1.54 ± 0.25 %ID/g (athymic nude mice, female, U-87 MG glioma xenograft, spleen; intravenous, 3 µCi, 4 h).
The inhibition of `NCC(CCC(N)C(=O)O)CC1OC(n2cnc3c(N)ncnc32)C(O)C1O` (stereo not drawn) is reported as over 50% (DNMT3A (Homo sapiens, UniProt Q9Y6K1); enzyme activity, inhibitor; 20 µM).

For quick reference, copied from above:
`C=CCn1nnc2c(NCc3ccc(C)s3)nc(N[C@H](CC)CO)nc21` has an inhibition of 10 to 20% (CDK5 (Homo sapiens, UniProt Q00535); enzyme activity; 2 µM).
For `CC[C@H](C)[C@H](NC(=O)[C@H](Cc1ccc(O)cc1)NC(=O)[C@@H](NC(=O)[C@H](CCCNC(=N)N)NC(=O)[C@@H](N)CC(=O)O)C(C)C)C(=O)N[C@@H](Cc1c[nH]cn1)C(=O)N1CCC[C@H]1C(=O)N[C@@H](Cc1ccccc1)C(=O)O`, the inhibition was 20% (ACE (Homo sapiens, UniProt P12821); angiotensin I hydrolysis; human serum; 2.5 µM, added: angiotensin I 2.5 µM).
For `N=C(N)NCCC[C@@H]1NC(=O)[C@H](CCCCNC(=O)CCOCCOCCOCCOCCNC(=O)CC[C@H](NC(=O)CCOCCOCCOCCOCCNC(=O)CC[C@H](NC(=O)CN2CCN(CC(=O)O)CCN(CC(=O)O)CCN(CC(=O)O)CC2)C(=O)NCCOCCOCCOCCOCCC(=O)N[C@@H](CCC(=O)NCCOCCOCCOCCOCCC(=O)NCCCC[C@@H]2NC(=O)[C@@H](Cc3ccccc3)NC(=O)[C@H](CC(=O)O)NC(=O)CNC(=O)[C@H](CCCNC(=N)N)NC2=O)C(=O)NCCOCCOCCOCCOCCC(=O)NCCCC[C@@H]2NC(=O)[C@@H](Cc3ccccc3)NC(=O)[C@H](CC(=O)O)NC(=O)CNC(=O)[C@H](CCCNC(=N)N)NC2=O)C(=O)NCCOCCOCCOCCOCCC(=O)NCCCC[C@@H]2NC(=O)[C@@H](Cc3ccccc3)NC(=O)[C@H](CC(=O)O)NC(=O)CNC(=O)[C@H](CCCNC(=N)N)NC2=O)NC(=O)[C@@H](Cc2ccccc2)NC(=O)[C@H](CC(=O)O)NC(=O)CNC1=O` [indium-111 labelled], “tumour to muscle ratio” read 13.5 ± 3.64 (female athymic nude mouse; intravenous, 3 µCi, 72 h, U-87 MG glioma xenograft; baseline: tumour over muscle).
